# Results collected from several papers.
# Compare with care: the assays were run in different laboratories. Numbers after ± are the reported error.
# ESR2: Estrogen receptor beta (ESR2, Homo sapiens, UniProt Q92731)
# UniProt Q92731, sequence (whole entry, looked up): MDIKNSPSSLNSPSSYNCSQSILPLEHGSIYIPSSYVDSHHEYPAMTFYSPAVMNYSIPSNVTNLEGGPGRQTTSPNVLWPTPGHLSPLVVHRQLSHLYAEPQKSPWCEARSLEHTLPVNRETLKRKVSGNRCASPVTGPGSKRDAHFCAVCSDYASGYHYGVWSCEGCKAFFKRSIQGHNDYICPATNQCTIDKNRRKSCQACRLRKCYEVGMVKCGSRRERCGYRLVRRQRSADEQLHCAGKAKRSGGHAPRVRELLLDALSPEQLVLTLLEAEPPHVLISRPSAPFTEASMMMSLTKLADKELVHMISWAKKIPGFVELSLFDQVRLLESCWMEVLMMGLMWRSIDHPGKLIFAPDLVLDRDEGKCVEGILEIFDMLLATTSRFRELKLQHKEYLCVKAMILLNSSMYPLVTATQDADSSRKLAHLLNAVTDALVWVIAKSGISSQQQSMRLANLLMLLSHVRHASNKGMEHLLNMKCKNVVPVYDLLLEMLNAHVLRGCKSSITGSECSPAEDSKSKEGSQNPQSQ
SMILES,tested on,test,system,setting,quantity,value
CC(C)c1ccc(C2C(C#N)=C3N=C(N)c4ccccc4N3C3=C2C(=O)CCC3)cc1 (stereo not shown),HMC3,"nuclear intensity, high-content imaging",,geometric mean,IC50,58.5 µM
CN1C2=CC(=O)/C(=N\NC(N)=O)C=C2CC1S(=O)(=O)[O-].[Na+] (stereo not shown),Nedd8-cullin1 interaction,"neddylation, AlphaScreen",,100 µM,inhibition,-35.8%
Cc1cc(Nc2ncc(Cl)c(Nc3ccccc3S(=O)(=O)C(C)C)n2)c(OC(C)C)cc1C1CCNCC1,Rh3 (alveolar rhabdomyosarcoma),cell growth,,3 days,IC50,0.36 ± 0.06 µM
Nc1ccn([C@@H]2O[C@H](CO)[C@@H](O)C2(F)F)c(=O)n1,HD-MB03,cell growth,,"168 h, single agent",IC50,0.0263 µM
CCn1ncc2c1-c1cnc(N)c(c1)O[C@H](C)c1cc(F)ccc1-c1nn(C)nc1C2,"NCI-H2228, EML4-ALK v3",cell viability,,,IC50,0.0022 µM
COc1ccc(COc2cc3oc(=O)c4cc(C(C)O)ccc4c3cc2OC)cc1 (stereo not shown),HD-MB03,,,168 h,IC50,inactive
CCCCc1nc(C)c(CC(=S)N(C)C)c(=O)n1Cc1ccc(-c2ccccc2-c2nnn[nH]2)cc1,human skeletal muscle cells,"BCKD phosphorylation, AlphaLISA",,,IC50,> 60 µM
C=C1C[C@](OC)([C@H](OCOC/C=C/B2OC(CC)(CC)C(CC)(CC)O2)C(=O)NC[C@@H]2C[C@@H](OC)C(C)(C)[C@@H](C[C@@H](COC)OC)O2)O[C@H](C)[C@@H]1C,RAW264.7,"cell viability, sulforhodamine B",,"48 h, 37 °C, together with: 100 µM H2O2",IC50,0.0101 ± 0.0002 µM
Cc1cc(Nc2ncc(Cl)c(Nc3ccccc3S(=O)(=O)C(C)C)n2)c(OC(C)C)cc1C1CCNCC1,NCI-H3122 (EML4-ALK variant 1),cell viability,,,IC50,0.0353 µM
O=C(O)COCC(=O)O,"hepatocytes, iPSC-derived, W2 line","cell viability, RealTime-Glo MT",,"48 h, differentiation day 23",IC50,8420 µM
COc1cccc2c1C(=O)c1c(O)c3c(c(O)c1C2=O)C[C@@](O)(C(=O)CO)C[C@@H]3O[C@H]1C[C@H](N)[C@H](O)[C@H](C)O1,HD-MB03,cell growth,,"168 h, DMSO",IC50,0.16 µM
CN1CCN(CCCN2c3ccccc3Sc3ccc(C(F)(F)F)cc32)CC1,"THLE-2 cells, Ad-Null transduced",cell viability,,no enzyme control,IC50,72 ± 28 µM
CN(c1ccc(NC(=O)c2cccc(C(=N)N)c2)cc1OCc1ccc(C(=N)N)cc1)S(=O)(=O)Cc1ccccc1,RAW264.7,"cell growth, MTT",,48 h,IC50,> 500 µM
O=C(NC[C@H](O)CO)c1ccncc1Nc1ccc(I)cc1F,HD-MB03,cell growth,,"168 h, single agent",IC50,1.02 µM
Cc1nc(NC(=O)N2CCC[C@H]2C(N)=O)sc1-c1ccnc(C(C)(C)C(F)(F)F)c1,NCI-H1048,"growth rate inhibition, CellTiter-Glo",,120 h,IC50,1.23 µM
CCC(C)(C)C(=O)O[C@H]1C[C@@H](C)C=C2C=C[C@H](C)[C@H](CC[C@@H]3C[C@@H](O)CC(=O)O3)[C@H]21,Nedd8-cullin1 interaction,"neddylation, AlphaScreen",,100 µM,inhibition,30.7%
Cn1cnc2c(F)c(Nc3ccc(Br)cc3Cl)c(C(=O)NOCCO)cc21,HD-MB03,cell growth,,"168 h, single agent",IC50,> 10 µM
C[C@H](Nc1ccc2c(c1)OCCn1cc(N3C(=O)OC[C@H]3C(F)F)nc1-2)C(N)=O,HGC-27,"growth rate inhibition, CellTiter-Glo",,120 h,IC50,0.219 µM
C=C(F)C(=O)N1CCN(c2nc(OC[C@@H]3CCCN3C)nc3c2CCN(c2cccc4cccc(Cl)c24)C3)C[C@@H]1CC#N,BXPC-3,"cell viability, 3D CellTiter-Glo",,,IC50,> 1 µM
Cc1[nH]c(/C=C2\C(=O)Nc3ccc(S(=O)(=O)N(C)c4cccc(Cl)c4)cc32)c(C)c1C(=O)N1CCN(C)CC1,Rh3 (alveolar rhabdomyosarcoma),cell growth,,3 days,IC50,2.72 ± 0.49 µM
CN(c1ccc(NC(=O)c2ccc(C(=N)N)cc2)cc1OCc1ccc(C(F)(F)F)cc1)S(=O)(=O)Cc1ccccc1,RAW264.7,"cell growth, MTT",,48 h,IC50,> 500 µM
CCCCc1nc(Cl)c(CO)n1Cc1ccc(-c2ccccc2-c2nn[nH]n2)cc1,human skeletal muscle cells,"BCKD phosphorylation, AlphaLISA",,,IC50,> 60 µM
Cc1ccc(C(=O)c2cc(O)c(O)c([N+](=O)[O-])c2)cc1,HD-MB03,cell growth,,"168 h, DMSO",IC50,0.711 µM
CC(=O)OC[C@H]1O[C@@H]([S-])[C@H](OC(C)=O)[C@@H](OC(C)=O)[C@@H]1OC(C)=O.CCP(CC)CC.[Au+],NCI-H661 HMOX1-GFP high,"cell viability, MTT",,48 h,IC50,0.5 µM
C[C@H](Nc1ncnc2nc[nH]c12)c1cc2cccc(Cl)c2c(=O)n1-c1ccccc1,human basophils,"up-regulation, CD63, fMLP-induced, refers to: CD63",human whole blood,together with: fMLP,IC50,2 µM
N=C(N)Nc1ccc(NC(=O)c2ccc3c(c2)OCO3)cc1OCc1ccccc1C(F)(F)F,RAW264.7,"cell growth, MTT",,48 h,IC50,> 500 µM
CCCS(=O)(=O)Nc1ccc(F)c(C(=O)c2c[nH]c3ncc(-c4ccc(Cl)cc4)cc23)c1F,SK-MEL-2 (NRAS Q61R),"ERK phosphorylation, Western blot",,1 h,IC50,> 30 µM
Cc1c(C(=O)O)ccc2c3n(nc12)[C@@H]1[C@H](C3)N(CC2CC2)[C@@]2(C(=O)Nc3cc(Cl)ccc32)[C@H]1c1cccc(Cl)c1F,UACC-812,"cell growth, alamarBlue",,"unbound, 4.5% of total",IC50,0.0108 µM
Cc1c(C)c2c(c(C)c1O)CCC(C)(COc1ccc(CC3SC(=O)NC3=O)cc1)O2 (stereo not shown),"hepatocytes, iPSC-derived, W2 line","cell viability, RealTime-Glo MT",,"72 h, differentiation day 23",IC50,69 µM
COc1ccc(-c2coc3cc(O)ccc3c2=O)cc1,ESR2,"array formation, agonist",GFP-ERβ PRL-HeLa,1 h,EC50,2.21 µM
"CC(=O)c1c(O)c(C)c(O)c2c1OC1=CC(=O)C(C(C)=O)C(=O)C12C (single isomer, unassigned; (+))","hepatocytes, iPSC-derived, W2 line",cell viability,,48 h,IC50,26 µM
COc1ccc(F)cc1C(=O)NCc1ccc(-c2nn([C@@H](C)C(F)(F)F)c(N)c2C(N)=O)cc1,Rec1,refers to: MCP-3,,24 h,IC50,> 0.1 µM
CN(C)C/C=C/C(=O)Nc1ccc(C(=O)Nc2cccc(Nc3ncc(Cl)c(-c4c[nH]c5ccccc45)n3)c2)cc1,HD-MB03,cell growth,,single agent,IC50,0.0131 µM
O=C(O)[C@H]1O[C@@H](Oc2cc3oc(-c4ccccc4)cc(=O)c3c(O)c2O)[C@H](O)[C@@H](O)[C@@H]1O,ESR2,"array formation, agonist",GFP-ERβ PRL-HeLa,1 h,EC50,1.35 µM
CCCCN1C[C@H](O)[C@@H](O)[C@@H](O)[C@H]1CO,sample E patient fibroblasts,"Gb3 level lowering, LC-MS/MS, refers to: Gb3 d18:1/22:0",,216 h,IC50,52.8 µM
CC1(C)CCC(c2ccc(Cl)cc2)=C(CN2CCN(c3ccc(C(=O)NS(=O)(=O)c4ccc(N[C@H](CCN5CCOCC5)CSc5ccccc5)c(S(=O)(=O)C(F)(F)F)c4)cc3)CC2)C1,HD-MB03,cell growth,,"168 h, single agent",IC50,0.0381 µM
N=C(N)Nc1ccc(C(=O)Oc2ccc3[nH]c4ccccc4c3c2)cc1,rat vascular smooth muscle cells,"cell proliferation, MTT",,together with: PDGF-BB,IC50,5.24 µM

# Some of these lines once more:
SMILES,tested on,test,system,setting,quantity,value
CN(c1ccc(NC(=O)c2ccc(C(=N)N)cc2)cc1OCc1ccc(C(F)(F)F)cc1)S(=O)(=O)Cc1ccccc1,RAW264.7,"cell growth, MTT",,48 h,IC50,> 500 µM
CCCCc1nc(Cl)c(CO)n1Cc1ccc(-c2ccccc2-c2nn[nH]n2)cc1,human skeletal muscle cells,"BCKD phosphorylation, AlphaLISA",,,IC50,> 60 µM
